Published values collected from several papers.
Compare with care: the assays were run in different laboratories. Several values in a cell are separate wells, animals, samples, runs or records. ± marks the error that the study gave.

| SMILES | assay | test system | setting | how to read | quantity | value |
| --- | --- | --- | --- | --- | --- | --- |
| Cn1cc([C@H]2C[C@H]3CSC(N)=N[C@@]3(c3ccc(F)cc3F)CO2)cn1 | item: Aβx-40 | wild-type mouse, brain | subcutaneous, 3 mg/kg, 6 h |  | brain Aβ40 level | 2.5 ng/g |
| NNC(=O)c1ccncc1 | ELISA | Mycobacterium marinum-infected mice, spleen | intraduodenal, 10 mg/kg three times daily, 3 days post infection |  | TNF-α level | 116 pg/mL and 117 pg/mL |
| NCc1cc2c(cc1F)C(=O)N(C1CCC(=O)NC1=O)C2 (centres unmarked) | degrader, Western blot, item: NEK7 | cynomolgus monkey, PBMC | oral, 0.1 mg/kg, 6 h |  | degradation | ~65% |
| CN(C)C(=O)Oc1cccc([N+](C)(C)C)c1 | twitch force recovery | rats with neuromuscular block | iv, with: cisatracurium infusion |  | ED70 | 0.015 mg/kg |
| CC(=O)NCC(=O)NCC(=O)N[C@H](C(=O)N[C@@H](Cc1ccc(O)cc1)C(=O)N[C@@H](CO)C(=O)N[C@H]1CSSC[C@@H](C(=O)N[C@@H](CCCNC(=N)N)C(=O)N2CCC[C@H]2C(=O)N[C@@H](CCC(N)=O)C(=O)N[C@@H](CCCNC(=N)N)C(=O)NCC(=O)NCCC(=O)N[C@@H](CCCCNC(=O)CN(CC(=O)NCCCC[C@H](NC(=O)CCNC(=O)CNC(=O)[C@H](CCCNC(=N)N)NC(=O)[C@H](CCC(N)=O)NC(=O)[C@@H]2CCCN2C(=O)[C@H](CCCNC(=N)N)NC(=O)[C@@H]2CSSC[C@H](NC(=O)[C@H](CO)NC(=O)[C@H](Cc3ccc(O)cc3)NC(=O)[C@@H](NC(=O)CNC(=O)CNC(C)=O)[C@@H](C)O)C(=O)N[C@@H](Cc3c[nH]cn3)C(=O)N[C@@H](Cc3ccccc3)C(=O)NCC(=O)N[C@@H](C)C(=O)N[C@@H](CC(C)C)C(=O)N[C@@H]([C@@H](C)O)C(=O)N[C@@H](Cc3c[nH]c4ccccc34)C(=O)N[C@@H](C(C)C)C(=O)N2)C(N)=O)C(=O)CCN)C(N)=O)NC(=O)[C@H](C(C)C)NC(=O)[C@H](Cc2c[nH]c3ccccc23)NC(=O)[C@H]([C@@H](C)O)NC(=O)[C@H](CC(C)C)NC(=O)[C@H](C)NC(=O)CNC(=O)[C@H](Cc2ccccc2)NC(=O)[C@H](Cc2c[nH]cn2)NC1=O)[C@@H](C)O |  | healthy BALB/c mice | subcutaneous, 0.16 mg/kg, 14 d, single dose |  | haemoglobin | 167 g/L |
| COc1c(Cl)cccc1Nc1c(-c2ccncc2OC[C@@H]2COCCO2)[nH]c2c1C(=O)NCC2 |  | human | oral, 20 mg twice daily, 18 weeks |  | tumour shrinkage | 52% |
| Cc1cc(Nc2ncc(Cl)c(Nc3ccccc3S(=O)(=O)C(C)C)n2)c(OC(C)C)cc1C1CCNCC1 |  | human | dose not given |  | duration of best response | 14.7 months |
| O=C(O)CNC(=O)Cc1ccccc1 |  | ventricular cardiomyocytes, C57BL/6 mouse | dose not given, 0.864 s |  | sarcomere length | 1.62 µm |
| C=CCn1c(=O)c2cnc(Nc3ccc(N4CCN(C)CC4)cc3)nc2n1-c1ccc2c(n1)[C@@](O)(CC)CC2 |  | SK-UT-1 xenograft, BALB/c nude mice | oral, 80 mg/kg, day 24, 6 d on, 1 d off x 4 cycles |  | tumour volume difference | 35 ± 7.6 mm3 |
| c1ccc(-c2n[nH]cc2-c2ccnc3ccccc23)nc1 | kinase binding, competitor, MIB/MS competition, item: HRR25 | Candida albicans cell lysate | 100 nM | relative to: DMSO | log2 fold change | 1.12 |
| Cc1ccc(C(=O)OCc2ccc([C@@H](CN)C(=O)Nc3ccc4cnccc4c3)cc2)c(C)c1 | tonometry | Macaca cyclopis, ocular normotensive | ocular, 0.02%, 56 h |  | IOP | 14.9 mmHg |
| O=C(NS(=O)(=O)C1CC1)c1cc2ccccc2n1Cc1ccc(C2CC2)c2ccccc12 |  | male mouse, acute hyperuricaemia model, serum | oral, 2 mg/kg, 4 h |  | serum uric acid | 327 ± 101 µM |
| [Cl-].[Cl-].[Pt+2].[Ru+2].c1ccc(-c2nccnc2-c2ccccn2)nc1.c1cnc2c(c1)ccc1cccnc12.c1cnc2c(c1)ccc1cccnc12 |  |  | concentration not given, second substitution step, with: thiourea |  | activation enthalpy | 39 ± 3 kJ/mol |
| CC1(C)CCC(CN2CCN(c3ccc(C(=O)NS(=O)(=O)c4ccc(NCC5CCOCC5)c([N+](=O)[O-])c4)c(Oc4cnc5[nH]ccc5c4)c3)CC2)=C(c2ccc(Cl)cc2)C1 | cell killing, flow cytometry PI exclusion | canine blood CD21+ B cells, dog 31 | 24 h |  | EC50 | 121 nM |
| O[C@H]1CCCN[C@@H]1CCCn1cnc2c(Cl)c(Cl)ccc21 | ELISA, item: Pro-C3 | healthy human volunteers, serum | 200 mg, day 1, multiple ascending dose |  | maximum reduction | 27.2% |
| FC(F)(F)Oc1cccc(-c2cnc3ccc(-c4ccncc4)nn23)c1 |  | MDA-MB-231 xenograft, NSG mouse | oral, 10 mg/kg daily, day 17 | higher = larger tumour | tumour size | 0.211 a.u. and 0.126 a.u. and 0.148 a.u. and 0.225 a.u. and 0.172 a.u. and 0.272 a.u. and 0.184 a.u. |
| C#CCNS(=O)(=O)c1ccc(CCN(Cc2cc(Cl)ccc2OCCC)C(=O)c2ccc(F)cc2)cc1 |  | Nlrp3-/- mouse LPS challenge | 10 mg/kg |  | serum TNF-alpha | inactive |
| CN[C@@H]1COc2c(S(=O)(=O)NC(=O)Nc3c4c(cc5c3CCC5)CCC4)cnn2C1 | item: IL-18 | human participants, whole blood ex vivo | 900 mg twice daily, multiple doses, 148 h, IL-18, circulating, adjusted for, with: LPS/ATP | relative to: baseline | inhibition | 101% |
| C[C@@H](NC(=O)N1C(=O)[C@H](Cc2ccnc(N)c2)[C@H]1C(=O)O)C1CCCCC1 |  | human | iv infusion, 1.5 mg/kg/h, 24 h | relative to: baseline | time to ACT Emax | 108 h |
| CO[C@H]1CC[C@H](N2C(=O)CNc3ncc(-c4ccc(C(C)(C)O)nc4)nc32)CC1 | flow cytometry | stimulated B cells, human, blood | 30 mg single dose, 1.5 h, mean | relative to: baseline | pS6RP change from baseline | -65.2% |
| [Cl-].[Cl-].[Pt+2].[Ru+2].c1ccc(-c2nc3ccccc3nc2-c2ccccn2)nc1.c1cnc2c(c1)ccc1cccnc12.c1cnc2c(c1)ccc1cccnc12 |  |  | concentration not given, second substitution step, with: guanosine 5'-monophosphate |  | activation enthalpy | 53 ± 5 kJ/mol |
| Cc1n[nH]c2ccc(-c3cc(OC[C@@H](N)Cc4ccccc4)cnc3-c3ccoc3)cc12 | kinase binding, competitor, MIB/MS competition, item: PKH2 | Candida albicans cell lysate | 100 nM | relative to: DMSO | log2 fold change | -0.165 |
| CC(C)c1c(C(=O)Nc2ccccc2)c(-c2ccccc2)c(-c2ccc(F)cc2)n1CC[C@@H](O)C[C@@H](O)CC(=O)O | ELISA | cynomolgus monkey, male, plasma | 40 mg/kg or 25 mg/kg, day 176 | relative to: pretreatment | plasma PCSK9 change | -12.8% |
| CCCS(=O)(=O)NC(=O)c1cc2ccccc2n1Cc1ccc(Br)c2ccccc12 |  | mouse, acute hyperuricemia model | dose not given |  | serum uric acid | 1190 µM and 1150 µM and 952 µM |

| SMILES | assay | test system | setting | how to read | quantity | value |
| --- | --- | --- | --- | --- | --- | --- |
| C=CC(=O)Nc1cc(Nc2ncc(C(=O)OC(C)C)c(-c3cn(C)c4ccccc34)n2)c(OC)cc1N(C)CCN(C)C |  | mice, NCI-H2073 vs LXF 2478 xenografts | highest clinically relevant dose, unit not given | relative to: NCI-H2073 minus LXF 2478 | growth rate difference | 0.0171 |
| O=C1Nc2cc3[nH]nc(-c4ccncc4)c3cc2CN1Cc1ccccc1 | RECIST v1.1 | human, relapsed or refractory advanced solid tumours | intravenous, 4.8 mg/kg |  | partial response, best response | 0% |
| N#CC[C@H](C1CCCC1)n1cc(-c2ncnc3[nH]ccc23)cn1 | phosphoflow cytometry, item: pSTAT5 | patients, patient plasma | dose not given | relative to: baseline | median peak inhibition | 58.9% |
| C[C@H]1C[C@H]2CSC(N)=N[C@@]2(c2nc(NC(=O)c3ccc(OC(F)F)cn3)cs2)CO1 | item: Aβx-40 | healthy adults, plasma | 200 mg single dose, 24 h post-dose | relative to: placebo | percent change from baseline | -69.7% |
| COc1cccc2c1c(O)c(C(=O)N(C)c1ccc(C(F)(F)F)cc1)c(=O)n2C |  | mouse, CP model, serum | 0.154 µmol/kg, 4 weeks |  | serum IL-6 | decreased |
| CN1CCc2cc(Cl)c(O)cc2[C@@H](c2ccccc2)C1 |  | mouse nucleus accumbens slices | 10 µM, with: 20 Hz electrical stimulation |  | stimulus-evoked dopamine sensor fluorescence | inhibited |
| COc1nnc2ccc(N3CCC(c4ccc(OCCN5CCN(C)C(=O)[C@H]5C)cc4)CC3)nn12 |  | human patients | 10 mg once daily, 1.5-fold above baseline |  | time above HEXIM1 threshold | 4.56 h |
| NC(=O)c1cnc2[nH]ccc2c1N[C@@H]1[C@@H]2CC3C[C@H]1C[C@@](O)(C3)C2 | CD4+ central memory T cells, flow cytometry | Japanese humans, peripheral blood | 60 mg single dose | relative to: baseline | percent change | 0.17% |
| C[C@@H](O)CCOC(=O)C[C@@H](C)O | item: C18:1 acylcarnitine | human, plasma | 60 min, log2-transformed values |  | metabolite level | -3.23 ± 0.45 µmol/L |
| O=C(O)CCc1nccc2c3ccccc3n(Cc3ccc(Br)cc3)c12 |  | mouse, acute hyperuricaemia model, serum | oral, 2 mg/kg, individual animal data |  | serum uric acid | 517 µM and 278 µM and 492 µM and 437 µM |
| OC(CCN1CCCCC1)(c1ccccc1)C1CC2C=CC1C2 (centres unmarked) | resting-state EEG | healthy elderly humans | oral, 4 mg, eyes closed, LS mean |  | EEG power, delta, Fz-Cz | 7.7 µV² |
| N#Cc1ccc2c(-c3ccncc3)c(-c3ccc(F)cc3)nn2c1 | kinase binding, competitor, MIB/MS competition, item: CKA2 | Candida albicans cell lysate | 100 nM | relative to: DMSO | log2 fold change | 0.124 |
| O=C(O[C@@H]1[C@@H](O)[C@H](Oc2cc(O)c3c(c2)O[C@H](c2ccccc2)CC3=O)O[C@@H]2COC(=O)c3cc(O)c(O)c(O)c3-c3c(cc(O)c(O)c3O)C(=O)O[C@@H]12)c1cc(O)c(O)c(O)c1 |  | mouse, laser-injury thrombosis, cremaster arterioles | intraperitoneal, 25 µg/g | relative to: control | fibrin fluorescence | 33.4 ± 7.53% |
| CC(C)NCC(O)c1ccc(O)c(O)c1 (centres unmarked) |  | ventricular cardiomyocytes, C57BL/6 mouse | dose not given, 0.736 s |  | sarcomere length | 1.72 µm |
| COc1cc2cc(-c3ccc(CC(=O)Nc4cc(C(C)(C)C(F)(F)F)no4)cn3)cnc2cc1OC | RECIST v1.1 | human RET-altered solid tumours | dose not given, phase I parts A and B |  | best overall response PR | 28% |
| c1ccc(-c2cc(-c3ccccc3)n(Cn3ccnc3)n2)cc1 |  | rat, STZ-nicotinamide diabetic | 150 mg/kg, 264 h, full-thickness excision wound |  | wound size | 12 mm |
| C[C@H](Oc1ccc(Br)cc1-c1ccon1)C(=O)O | muscle velocity recovery cycles | human, tibialis anterior muscle | 400 mg twice daily | relative to: placebo | MVRC latency difference | 0.253 ms |
| O=C(NS(=O)(=O)c1ccccc1)c1cc2ccccc2n1Cc1ccc(Br)c2ccccc12 |  | male mouse, acute hyperuricaemia model, serum | oral, 2 mg/kg, 4 h |  | serum uric acid | 270 ± 49.1 µM |
| O=P(O)(O)C(Cl)(Cl)P(=O)(O)O |  | Mus musculus, sham-operated, meninges | concentration not given, day 7 | relative to: total area | Iba1-positive area | 0.62% and 0.56% and 0.45% |
| O=C(NS(=O)(=O)c1ccccc1)c1cc2ccccc2n1Cc1ccc(C2CC2)c2ccccc12 |  | mouse, acute hyperuricaemia model, serum | oral, 2 mg/kg | relative to: vehicle model | serum uric acid decrease | 95.9% |
| CSCCNc1nc(SCCC(F)(F)F)nc2c1ncn2[C@@H]1O[C@H](COP(=O)(O)OP(=O)(O)C(Cl)(Cl)P(=O)(O)O)[C@@H](O)[C@H]1O | ADP-induced platelet aggregation, light transmittance aggregometry | human patients, platelet-rich plasma | dose not given, 15 min, aggregation above 59%, with: ADP 20 µM | relative to: patients | high residual platelet reactivity | 57.5% |
| Cc1cnc(N2CC3(CCOCC3)C2)c(C(=O)Nc2ccc(C(=O)N3CCc4cc(C(=O)Nc5c(C)cccc5F)sc4-c4ccccc43)cc2)c1 | item: Periostin | human RSV infection, nasal wash | dose not given, AUC, ITT-IS population | relative to: placebo | inhibition | 13% |
| CC(=O)O[C@H]1C(=O)[C@@]2(C)[C@H]([C@H](OC(=O)c3ccccc3)[C@]3(O)C[C@H](OC(=O)[C@H](O)[C@@H](NC(=O)c4ccccc4)c4ccccc4)C(C)=C1C3(C)C)[C@]1(OC(C)=O)CO[C@@H]1C[C@@H]2O |  | rats, DMBA-induced mammary tumours | dose not given, day 42 |  | tumour volume | 0.25 ± 0.006 cm3 |

Excerpt of the above:
| SMILES | assay | test system | setting | how to read | quantity | value |
| --- | --- | --- | --- | --- | --- | --- |
| C[C@H](Oc1ccc(Br)cc1-c1ccon1)C(=O)O | muscle velocity recovery cycles | human, tibialis anterior muscle | 400 mg twice daily | relative to: placebo | MVRC latency difference | 0.253 ms |
| Cc1cc(Nc2ncc(Cl)c(Nc3ccccc3S(=O)(=O)C(C)C)n2)c(OC(C)C)cc1C1CCNCC1 |  | human | dose not given |  | duration of best response | 14.7 months |
| c1ccc(-c2n[nH]cc2-c2ccnc3ccccc23)nc1 | kinase binding, competitor, MIB/MS competition, item: HRR25 | Candida albicans cell lysate | 100 nM | relative to: DMSO | log2 fold change | 1.12 |
| O=C(O)CCc1nccc2c3ccccc3n(Cc3ccc(Br)cc3)c12 |  | mouse, acute hyperuricaemia model, serum | oral, 2 mg/kg, individual animal data |  | serum uric acid | 517 µM and 278 µM and 492 µM and 437 µM |
